Measurements pooled from the literature.
Parts stem from different laboratories: compare values within a part only.
Sequence of UniProt Q9BWU1 (whole entry, looked up): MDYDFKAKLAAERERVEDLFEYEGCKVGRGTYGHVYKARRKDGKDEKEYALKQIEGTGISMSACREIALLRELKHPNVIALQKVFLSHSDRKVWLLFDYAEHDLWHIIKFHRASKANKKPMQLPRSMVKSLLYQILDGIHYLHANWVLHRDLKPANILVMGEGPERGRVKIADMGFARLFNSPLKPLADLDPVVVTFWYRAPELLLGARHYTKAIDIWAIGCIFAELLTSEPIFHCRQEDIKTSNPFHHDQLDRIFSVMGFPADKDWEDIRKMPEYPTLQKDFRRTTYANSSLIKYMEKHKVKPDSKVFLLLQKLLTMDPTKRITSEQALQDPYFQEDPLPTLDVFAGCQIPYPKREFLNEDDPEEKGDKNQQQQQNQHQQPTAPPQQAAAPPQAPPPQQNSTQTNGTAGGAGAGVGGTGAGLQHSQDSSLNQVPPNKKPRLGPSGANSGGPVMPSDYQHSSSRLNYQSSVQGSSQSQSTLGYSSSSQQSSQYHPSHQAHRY
Sequence of UniProt Q8IU85 (whole entry, looked up): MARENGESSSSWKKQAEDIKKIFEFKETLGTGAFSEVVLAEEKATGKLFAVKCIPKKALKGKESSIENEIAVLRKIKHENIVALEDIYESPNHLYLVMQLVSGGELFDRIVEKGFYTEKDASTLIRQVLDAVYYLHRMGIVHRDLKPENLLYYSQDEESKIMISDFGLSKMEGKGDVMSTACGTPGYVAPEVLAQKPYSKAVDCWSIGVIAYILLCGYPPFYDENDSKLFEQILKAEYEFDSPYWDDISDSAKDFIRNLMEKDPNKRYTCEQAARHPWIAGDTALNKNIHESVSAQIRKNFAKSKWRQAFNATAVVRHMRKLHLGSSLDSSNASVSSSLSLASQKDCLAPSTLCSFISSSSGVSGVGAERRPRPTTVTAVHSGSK
Sequence of UniProt Q13557 (whole entry, looked up): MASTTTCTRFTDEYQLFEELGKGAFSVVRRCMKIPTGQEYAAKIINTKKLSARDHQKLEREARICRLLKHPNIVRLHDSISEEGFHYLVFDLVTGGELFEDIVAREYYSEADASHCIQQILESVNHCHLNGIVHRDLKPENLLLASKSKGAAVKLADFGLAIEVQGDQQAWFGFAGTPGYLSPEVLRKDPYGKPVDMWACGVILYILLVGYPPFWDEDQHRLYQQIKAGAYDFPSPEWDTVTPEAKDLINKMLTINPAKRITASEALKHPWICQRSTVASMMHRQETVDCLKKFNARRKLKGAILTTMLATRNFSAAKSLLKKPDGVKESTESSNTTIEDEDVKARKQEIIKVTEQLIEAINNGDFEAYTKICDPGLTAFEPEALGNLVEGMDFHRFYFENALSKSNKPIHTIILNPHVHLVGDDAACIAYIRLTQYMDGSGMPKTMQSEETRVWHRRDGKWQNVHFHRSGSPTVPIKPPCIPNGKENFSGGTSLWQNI
Sequence of UniProt Q9UQM7 (whole entry, looked up): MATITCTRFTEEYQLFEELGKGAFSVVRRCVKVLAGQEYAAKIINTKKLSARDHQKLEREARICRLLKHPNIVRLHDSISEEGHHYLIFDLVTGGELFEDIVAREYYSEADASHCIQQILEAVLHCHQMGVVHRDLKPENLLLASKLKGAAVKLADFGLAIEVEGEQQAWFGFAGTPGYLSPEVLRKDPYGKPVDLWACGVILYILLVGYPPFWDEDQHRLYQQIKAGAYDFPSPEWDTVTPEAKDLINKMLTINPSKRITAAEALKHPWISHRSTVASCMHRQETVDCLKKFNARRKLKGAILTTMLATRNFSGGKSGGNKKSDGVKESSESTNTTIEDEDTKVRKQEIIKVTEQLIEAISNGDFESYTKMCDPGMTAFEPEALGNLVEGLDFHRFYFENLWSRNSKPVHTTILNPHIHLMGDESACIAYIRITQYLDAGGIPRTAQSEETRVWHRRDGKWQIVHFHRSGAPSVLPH
Sequence of UniProt P29317 (whole entry, looked up): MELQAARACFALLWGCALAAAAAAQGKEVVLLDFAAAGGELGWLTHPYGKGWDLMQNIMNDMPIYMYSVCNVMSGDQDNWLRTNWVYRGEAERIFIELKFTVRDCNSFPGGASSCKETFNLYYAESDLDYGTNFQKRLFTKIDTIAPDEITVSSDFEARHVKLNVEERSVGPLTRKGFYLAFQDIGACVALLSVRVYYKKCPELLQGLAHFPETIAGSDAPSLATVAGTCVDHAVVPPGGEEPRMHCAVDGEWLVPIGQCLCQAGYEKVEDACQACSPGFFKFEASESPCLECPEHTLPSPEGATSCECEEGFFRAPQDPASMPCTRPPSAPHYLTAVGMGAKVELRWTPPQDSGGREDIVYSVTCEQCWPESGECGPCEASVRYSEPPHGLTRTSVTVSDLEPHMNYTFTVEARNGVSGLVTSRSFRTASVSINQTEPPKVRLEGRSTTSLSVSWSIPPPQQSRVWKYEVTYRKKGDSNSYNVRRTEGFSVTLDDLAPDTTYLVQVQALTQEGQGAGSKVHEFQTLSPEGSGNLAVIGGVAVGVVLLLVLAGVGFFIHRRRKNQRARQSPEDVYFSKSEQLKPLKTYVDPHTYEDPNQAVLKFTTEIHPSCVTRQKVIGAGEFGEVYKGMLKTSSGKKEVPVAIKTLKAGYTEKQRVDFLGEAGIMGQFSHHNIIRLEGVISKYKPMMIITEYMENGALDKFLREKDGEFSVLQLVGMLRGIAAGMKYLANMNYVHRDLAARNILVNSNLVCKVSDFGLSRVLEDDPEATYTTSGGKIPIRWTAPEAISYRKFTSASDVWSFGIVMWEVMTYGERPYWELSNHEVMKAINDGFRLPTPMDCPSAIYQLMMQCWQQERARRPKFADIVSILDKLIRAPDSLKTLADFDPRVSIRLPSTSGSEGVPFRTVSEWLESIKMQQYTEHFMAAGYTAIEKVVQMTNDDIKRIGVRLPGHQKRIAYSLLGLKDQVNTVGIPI

Study 1
Structure (SMILES): C[C@@H]1CN(c2ccc(-c3cc(C(=O)NCCOCCOCCOCCOCCOCCOCCNC(=O)/C=C/c4[nH]cc(C(=O)N[C@@H](CC(N)=O)c5ccc(F)c(Cl)c5)c4-c4ccc(Cl)cc4F)ccc3F)cc2NC(=O)c2ccc(F)cc2C(F)(F)F)C[C@H](C)N1C
Effect on: thermal unfolding
Technique: differential scanning fluorimetry
Tested at: 5.5 µM
Direction: higher = more unfolded
DCAF1: DDB1- and CUL4-associated factor 1 (DCAF1, Homo sapiens, UniProt Q9Y4B6)
Sequence of UniProt Q9Y4B6 (whole entry, looked up): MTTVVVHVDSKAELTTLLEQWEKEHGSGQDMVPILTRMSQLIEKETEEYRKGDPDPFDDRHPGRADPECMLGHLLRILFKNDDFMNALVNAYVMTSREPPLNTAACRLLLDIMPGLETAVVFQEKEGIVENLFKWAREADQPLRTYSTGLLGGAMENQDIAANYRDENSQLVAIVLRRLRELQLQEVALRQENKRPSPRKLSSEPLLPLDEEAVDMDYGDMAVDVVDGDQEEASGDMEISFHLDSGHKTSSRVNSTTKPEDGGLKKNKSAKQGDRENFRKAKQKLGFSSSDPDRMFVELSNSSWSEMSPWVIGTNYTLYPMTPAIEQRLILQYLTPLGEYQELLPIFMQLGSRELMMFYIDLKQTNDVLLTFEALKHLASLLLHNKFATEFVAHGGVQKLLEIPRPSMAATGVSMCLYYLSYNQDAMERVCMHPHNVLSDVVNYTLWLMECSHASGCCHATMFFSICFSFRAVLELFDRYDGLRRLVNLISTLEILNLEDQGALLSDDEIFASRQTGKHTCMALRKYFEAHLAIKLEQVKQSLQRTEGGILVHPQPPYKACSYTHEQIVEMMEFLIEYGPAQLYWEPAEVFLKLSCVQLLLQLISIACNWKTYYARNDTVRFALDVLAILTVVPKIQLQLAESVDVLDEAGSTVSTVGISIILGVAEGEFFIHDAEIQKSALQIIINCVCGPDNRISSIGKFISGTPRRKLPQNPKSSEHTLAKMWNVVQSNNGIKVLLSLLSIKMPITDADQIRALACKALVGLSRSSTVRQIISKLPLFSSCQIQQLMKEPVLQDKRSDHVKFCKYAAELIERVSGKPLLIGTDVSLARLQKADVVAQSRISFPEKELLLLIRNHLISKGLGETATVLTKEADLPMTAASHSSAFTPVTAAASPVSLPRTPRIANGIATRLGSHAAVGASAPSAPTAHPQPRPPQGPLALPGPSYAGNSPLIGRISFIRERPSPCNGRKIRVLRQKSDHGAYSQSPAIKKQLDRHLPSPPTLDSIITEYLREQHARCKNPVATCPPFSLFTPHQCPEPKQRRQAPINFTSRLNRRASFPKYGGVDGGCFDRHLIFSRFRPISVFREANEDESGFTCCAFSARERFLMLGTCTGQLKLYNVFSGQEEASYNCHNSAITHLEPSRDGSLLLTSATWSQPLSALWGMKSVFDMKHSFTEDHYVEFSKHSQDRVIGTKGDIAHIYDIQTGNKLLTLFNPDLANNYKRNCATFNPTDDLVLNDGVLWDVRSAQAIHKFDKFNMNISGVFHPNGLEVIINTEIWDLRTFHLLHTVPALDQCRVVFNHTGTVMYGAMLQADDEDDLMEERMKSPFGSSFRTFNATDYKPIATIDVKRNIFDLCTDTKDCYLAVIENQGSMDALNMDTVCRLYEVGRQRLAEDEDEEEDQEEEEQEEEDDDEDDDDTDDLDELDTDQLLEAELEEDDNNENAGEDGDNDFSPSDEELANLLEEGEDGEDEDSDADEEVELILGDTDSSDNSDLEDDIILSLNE
WDR5: WD repeat-containing protein 5 (WDR5, Homo sapiens, UniProt P61964)
For DCAF1; 31 °C: “SYPRO Orange fluorescence” read 8710 a.u.
For DCAF1; 43 °C: “SYPRO Orange fluorescence” read 13500 a.u.
For DCAF1; 70.41 °C: “SYPRO Orange fluorescence” read 47900 a.u.
For DCAF1; 37.2 °C: “SYPRO Orange fluorescence” read 10800 a.u.
The “SYPRO Orange fluorescence” was 54000 a.u. (DCAF1; 63.21 °C).
DCAF1; 43.4 °C — “SYPRO Orange fluorescence”: 13800 a.u.
The “SYPRO Orange fluorescence” was 33500 a.u. (DCAF1; 56.81 °C).
WDR5; 36 °C — “SYPRO Orange fluorescence”: 13900 a.u.
For DCAF1; 74.61 °C: “SYPRO Orange fluorescence” read 44100 a.u.
WDR5; 34 °C — “SYPRO Orange fluorescence”: 13800 a.u.
For WDR5; 74.81 °C: “SYPRO Orange fluorescence” read 47900 a.u.

Study 2
SMILES: CC[C@@]1(c2cccc(C(F)(F)F)c2)C2=C(Nc3n[nH]cc31)[C@H](F)C(C)(C)CC2=O (single isomer, unassigned)
Tested at: 1 µM
It gave 68% for remaining binding (EGFR (Homo sapiens, UniProt P00533, del747-750/T751S); binding, competition with immobilised ligand).
CAMK2D (Homo sapiens, UniProt Q13557); binding, competition with immobilised ligand — remaining binding: 78%.
For CDK19 (Homo sapiens, UniProt Q9BWU1); KINOMEscan: remaining binding read 100%.
The remaining binding was 61% (CDKL1 (Homo sapiens, UniProt Q00532); binding, competition with immobilised ligand).
For CILK1 (Homo sapiens, UniProt Q9UPZ9); kinase binding, KINOMEscan; reference: DMSO control: remaining binding read 100%.
The remaining binding was 100% (SBK1 (Homo sapiens, UniProt Q52WX2); kinase binding, KINOMEscan; reference: DMSO control).
INSRR (Homo sapiens, UniProt P14616); kinase binding, KINOMEscan; reference: DMSO control — remaining binding: 100%.
ROS1 (Homo sapiens, UniProt P08922); binding, competition with immobilised ligand — remaining binding: 98%.
MYLK (Homo sapiens, UniProt Q15746); kinase binding, KINOMEscan; reference: DMSO control — remaining binding: 100%.
It gave 84% for remaining binding (PIK3C2G (Homo sapiens, UniProt O75747); binding, competition with immobilised ligand).
For TESK1 (Homo sapiens, UniProt Q15569); binding, competition with immobilised ligand: remaining binding read 100%.
It gave 100% for remaining binding (SIK1 (Homo sapiens, UniProt P57059); KINOMEscan).
PLK4 (Homo sapiens, UniProt O00444); binding, competition with immobilised ligand — remaining binding: 100%.
ACVR2B (Homo sapiens, UniProt Q13705); binding, competition with immobilised ligand — remaining binding: 100%.
The remaining binding was 100% (STK36 (Homo sapiens, UniProt Q9NRP7); binding, competition with immobilised ligand).
The remaining binding was 59% (PIK3CA (Homo sapiens, UniProt P42336, Q546K); kinase binding, KINOMEscan; reference: DMSO control).
It gave 100% for remaining binding (CLK4 (Homo sapiens, UniProt Q9HAZ1); binding, competition with immobilised ligand).
For PRKD3 (Homo sapiens, UniProt O94806); kinase binding, KINOMEscan; reference: DMSO control: remaining binding read 79%.
The remaining binding was 81% (EIF2AK2 (Homo sapiens, UniProt P19525); kinase binding, KINOMEscan; reference: DMSO control).

Study 3
SMILES: Cc1ccc(O)c(C)c1-c1cnc2[nH]c(-c3cnc(N4CCC(CN5CCC(c6ccc(NC7CCC(=O)NC7=O)cc6F)CC5)CC4)nc3)cc2c1C#N (stereo not drawn)
Target: Membrane-associated tyrosine- and threonine-specific cdc2-inhibitory kinase (PKMYT1, Homo sapiens, UniProt Q99640)
Sequence of UniProt Q99640 (whole entry, looked up): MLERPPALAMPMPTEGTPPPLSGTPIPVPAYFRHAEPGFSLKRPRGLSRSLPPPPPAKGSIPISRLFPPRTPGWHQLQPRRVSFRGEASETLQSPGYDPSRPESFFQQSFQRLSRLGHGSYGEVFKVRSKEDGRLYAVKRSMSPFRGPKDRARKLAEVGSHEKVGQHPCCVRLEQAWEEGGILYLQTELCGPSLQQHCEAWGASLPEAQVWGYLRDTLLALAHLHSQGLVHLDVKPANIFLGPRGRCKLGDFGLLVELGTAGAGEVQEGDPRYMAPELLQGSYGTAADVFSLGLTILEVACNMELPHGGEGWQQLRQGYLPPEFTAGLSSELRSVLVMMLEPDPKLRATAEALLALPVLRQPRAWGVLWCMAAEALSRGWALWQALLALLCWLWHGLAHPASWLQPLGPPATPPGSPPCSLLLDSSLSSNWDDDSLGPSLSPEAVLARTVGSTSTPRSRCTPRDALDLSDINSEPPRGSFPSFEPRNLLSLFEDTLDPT
The inhibition was 98.8% (0.3333 µM).
cell-free assay, inhibitor, TR-FRET; 0.3333 µM — inhibition: 99%.
The inhibition was -3.62% (cell-free assay, inhibitor, TR-FRET; 152 pM).
It gave -2.87% for inhibition (0.00046 µM).
It gave 12% for inhibition (0.00137 µM).
It gave 37.9% for inhibition (cell-free assay, inhibitor, TR-FRET; 4.12 nM).
For 0.000152 µM: inhibition read -7.85%.
For 0.1111 µM: inhibition read 96.8%.
For cell-free assay, inhibitor, TR-FRET; 1.37 nM: inhibition read 13%.
The inhibition was 88.4% (cell-free assay, inhibitor, TR-FRET; 37.04 nM).
0.00412 µM — inhibition: 38.5%.
For cell-free assay, inhibitor, TR-FRET; 12.35 nM: inhibition read 71.7%.
For cell-free assay, inhibitor, TR-FRET; 1 µM: inhibition read 98.2%.

Study 4
SMILES: CNc1ncc2cc(-c3cc(OC)cc(OC)c3Cl)c(=O)n(CCc3ccc(NC(=O)C(C#N)=CC(C)(C)N4CCOCC4)cc3)c2n1
Effect on: kinase activity
For Cyclin-dependent kinase 3, with cyclin E (CDK3, Homo sapiens, UniProt Q00526); 1 µM: inhibition read 5%.
CSF1R (Homo sapiens, UniProt P07333); 0.1 µM — inhibition: 83%.
For SPHK2 (Homo sapiens, UniProt Q9NRA0); 0.1 µM: inhibition read 0%.
The inhibition was 0% (PRKAA2 (Homo sapiens, UniProt P54646); 1 µM).
For HIPK2 (Homo sapiens, UniProt Q9H2X6); 1 µM: inhibition read 1%.
The inhibition was -1% (NEK7 (Homo sapiens, UniProt Q8TDX7); 1 µM).
CAMK1D (Homo sapiens, UniProt Q8IU85); 0.1 µM — inhibition: 1%.
The inhibition was -11% (SRPK1 (Homo sapiens, UniProt Q96SB4); 1 µM).
The inhibition was -2% (CAMK2A (Homo sapiens, UniProt Q9UQM7); 0.1 µM).
CSNK1G2 (Homo sapiens, UniProt P78368); 1 µM — inhibition: 9%.
MAP4K5 (Homo sapiens, UniProt Q9Y4K4); 1 µM — inhibition: -2%.
The inhibition was -5% (JAK3 (Homo sapiens, UniProt P52333); 1 µM).
STK3 (Homo sapiens, UniProt Q13188); 1 µM — inhibition: 4%.
It gave 16% for inhibition (TEC (Homo sapiens, UniProt P42680); 1 µM).
The inhibition was -9% (ROCK2 (Homo sapiens, UniProt O75116); 0.1 µM).
The inhibition was 1% (EPHA2 (Homo sapiens, UniProt P29317); 0.1 µM).
RPS6KB2 (Homo sapiens, UniProt Q9UBS0); 1 µM — inhibition: 1%.

Repeated from above (study 1):
DCAF1; 43.4 °C — “SYPRO Orange fluorescence”: 13800 a.u.
WDR5; 36 °C — “SYPRO Orange fluorescence”: 13900 a.u.
For WDR5; 74.81 °C: “SYPRO Orange fluorescence” read 47900 a.u.
The “SYPRO Orange fluorescence” was 33500 a.u. (DCAF1; 56.81 °C).
WDR5; 34 °C — “SYPRO Orange fluorescence”: 13800 a.u.
For DCAF1; 43 °C: “SYPRO Orange fluorescence” read 13500 a.u.
